Results collected from several papers.
Lines come from different studies, so protocols differ.

SMILES | system | setting | measurement | result
CN1CC[C@@H](NC(=O)Nc2ccc(C#N)cc2)C[C@@H]1c1nc2ccccc2[nH]1 | human, plasma | intravenous, 50 mg, single dose, healthy volunteers | clearance | 218 mL/min
C[C@@H](N)c1cc(Cl)ccc1Cn1c(=S)[nH]c(=O)c2[nH]ccc21 | human, plasma | oral, 10 mg, multiple doses, once daily, healthy volunteers | CL/F | 27.6 L/h
O=C(O)C[C@H](O)C[C@H](O)/C=C/c1c(C2CC2)nc2ccccc2c1-c1ccc(F)cc1 | female human, plasma | oral, 2 mg, multiple doses | clearance | 146 mL/min
O=C(NC[C@H]1CN(c2ccc(N3CCOCC3=O)cc2)C(=O)O1)c1ccc(Cl)s1 | human, urine | oral, 10 mg | renal clearance | 35.3 mL/min
CS(=O)(=O)n1cc2c(n1)CN([C@H]1CO[C@H](c3cc(F)ccc3F)[C@@H](N)C1)C2 | male human, urine | oral, 50 mg, single dose, fasted, healthy volunteers | renal clearance | 40 mL/min
COc1cccc(OCCCN)c1-c1cc(Nc2cnc(C#N)cn2)n[nH]1 | human, plasma | intravenous, 80 mg/m², patients, infusion | clearance | 1310 mL/min
O=C1CCc2cc(OC[C@H](O)CN3CCN(c4ccc(C(F)(F)F)cc4)CC3)ccc2N1 | human, plasma | intravenous, 25 mg, multiple doses, once daily, steady state | clearance | 200 mL/min
C[C@@H]1CCC[C@H](n2cnc(-c3cc(Cl)ccc3-n3cc(Cl)nn3)cc2=O)c2cc(ccn2)-c2c(cnn2C(F)F)NC1=O | human, urine | oral, 60 mg, single dose | renal clearance | 26.9 mL/min

Repeated from above:
SMILES | system | setting | measurement | result
C[C@@H]1CCC[C@H](n2cnc(-c3cc(Cl)ccc3-n3cc(Cl)nn3)cc2=O)c2cc(ccn2)-c2c(cnn2C(F)F)NC1=O | human, urine | oral, 60 mg, single dose | renal clearance | 26.9 mL/min
